{"data": "Measurements gathered from unrelated publications", "note": "A part holds a random share of what one study measured. Substitutions count along the parent as printed."}
{"data": "Block 1", "target": "Transcription factor SOX-2, HMG box (Sox2, Mus musculus, UniProt P48432, residues 41-119)", "method": "Spec-seq", "form": "double-stranded DNA, one strand shown", "matrix": "in vitro", "tested at": "not given", "notes": "whole probe, mean of replicates", "reference": "not given", "direction": "lower = stronger binding", "all sequences stand within": "GAGTCGTCTCGTCAGCAC … CCGTAGAGCACTCAGGTC", "chain of UniProt P48432 (41-119, looked up)": "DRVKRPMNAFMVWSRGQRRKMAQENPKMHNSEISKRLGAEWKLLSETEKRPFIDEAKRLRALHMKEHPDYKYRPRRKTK"}
{"Strand": "AATGGTT", "relative binding energy [ln ratio]": -2.04}
{"Strand": "CATTGTC", "relative binding energy [ln ratio]": -2.15}
{"Strand": "CATACGT", "relative binding energy [ln ratio]": 0.116}
{"Strand": "CTGAGTT", "relative binding energy [ln ratio]": 1.25}
{"Strand": "GTTCGTT", "relative binding energy [ln ratio]": 1.12}
{"Strand": "TGCAGTT", "relative binding energy [ln ratio]": 0.439}
{"Strand": "TTCCGTT", "relative binding energy [ln ratio]": 1.08}
{"Strand": "CATGCTA", "relative binding energy [ln ratio]": 0.484}
{"Strand": "CATAGGT", "relative binding energy [ln ratio]": -0.438}
{"Strand": "CATTAAG", "relative binding energy [ln ratio]": -0.499}
{"Strand": "CATGCAT", "relative binding energy [ln ratio]": -0.00435}
{"Strand": "CATACCG", "relative binding energy [ln ratio]": 0.319}
{"Strand": "CCCCGTT", "relative binding energy [ln ratio]": 1.06}
{"Strand": "GGAAGTT", "relative binding energy [ln ratio]": 1.27}
{"data": "Block 2", "Substance": "PhoQ, residues 284 288 289 292 302 303 AQGLTV", "method": "Sort-seq", "item": "YFP reporter", "matrix": "E. coli", "notes": "PhoQ-PhoP variant library", "together with": "10 µM Mg2+", "reference": "high Mg2+ state", "direction": "higher = stronger signaling"}
{"target": "PhoP, residues 12 14 15 18 19 TPWTL (Escherichia coli, UniProt P23836)", "fold induction": 1.34}
{"target": "PhoP, residues 12 14 15 18 19 LHHYF (Escherichia coli, UniProt P23836)", "fold induction": 21.3}
{"target": "PhoP, residues 12 14 15 18 19 VGHWL (Escherichia coli, UniProt P23836)", "fold induction": 1.02}
{"target": "PhoP, residues 12 14 15 18 19 NFFVT (Escherichia coli, UniProt P23836)", "fold induction": 1.33}
{"data": "Block 3", "target": "Centromere-binding protein 1, full length, His-tagged (CBF1, Saccharomyces cerevisiae, UniProt P17106, residues 1-351)", "method": "competition protein-binding microarray", "form": "double-stranded DNA, one strand shown", "matrix": "in vitro", "tested at": "2 µM", "notes": "whole 60-bp probe, lowest competitor level", "together with": "Pho4 competitor, 0.05 µM", "direction": "higher = stronger binding", "chain of UniProt P17106 (whole entry, looked up)": "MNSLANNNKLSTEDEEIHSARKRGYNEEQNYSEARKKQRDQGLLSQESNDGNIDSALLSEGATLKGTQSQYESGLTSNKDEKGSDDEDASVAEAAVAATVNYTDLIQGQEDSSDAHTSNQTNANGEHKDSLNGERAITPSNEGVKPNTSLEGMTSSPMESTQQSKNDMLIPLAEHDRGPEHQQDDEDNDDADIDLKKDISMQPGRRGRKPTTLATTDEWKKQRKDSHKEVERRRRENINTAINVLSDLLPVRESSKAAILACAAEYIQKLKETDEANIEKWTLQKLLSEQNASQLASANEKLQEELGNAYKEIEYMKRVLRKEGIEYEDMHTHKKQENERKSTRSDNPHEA"}
{"Strand": "CATGTTTTGCCCGAAATCGTGCCAGTGATAAATCGGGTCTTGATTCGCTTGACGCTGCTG", "fluorescence intensity [a.u.]": 96.2}
{"Strand": "CATACCCAACCTTGCTTTGTGGGTGAAGATATTTGTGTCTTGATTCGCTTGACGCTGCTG", "fluorescence intensity [a.u.]": 59.6}
{"Strand": "TAACGGCTATCCCATCACGCTTTCACCGAGGAGACCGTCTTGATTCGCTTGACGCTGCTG", "fluorescence intensity [a.u.]": 131}
{"Strand": "TTGAGAAGTGGGACCCACGTGCCACTCCCTGTTCTGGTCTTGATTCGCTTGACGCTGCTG", "fluorescence intensity [a.u.]": 1160}
{"Strand": "TCAGAGAACAGGAAGCATGTGCTCAGTGCACAGGCGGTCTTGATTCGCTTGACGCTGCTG", "fluorescence intensity [a.u.]": 178}
{"Strand": "GTCTTGTCTCATTATCACGTGTTTTTCCCCACTTCAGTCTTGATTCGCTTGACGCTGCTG", "fluorescence intensity [a.u.]": 4190}
{"Strand": "CGAAAACGGATGCCATGTTCCAGCACCAACTGCTACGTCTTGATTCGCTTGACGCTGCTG", "fluorescence intensity [a.u.]": 57.7}
{"Strand": "CTCAGGTAGACGGTGCTCGTGTCGGGACAATTTTAAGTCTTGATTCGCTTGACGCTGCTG", "fluorescence intensity [a.u.]": 74.2}
{"Strand": "CGGGGTTAAGTTTGTCACGTGACTTGCTTGCAGCAGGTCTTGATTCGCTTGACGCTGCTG", "fluorescence intensity [a.u.]": 30400}
{"Strand": "TTTTACTGCAGAAAGCACGTGGAGGATCTGCTTCATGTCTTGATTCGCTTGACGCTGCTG", "fluorescence intensity [a.u.]": 1290}
{"Strand": "ATGTACAGTGGTACCCTCGTGTTTTCTGCAGCGAGAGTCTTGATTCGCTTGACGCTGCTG", "fluorescence intensity [a.u.]": 106}
{"Strand": "AAATTACTAAGTTGTCACGTGGGTGACGCCGTATGAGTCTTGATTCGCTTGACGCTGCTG", "fluorescence intensity [a.u.]": 6160}
{"Strand": "TTTTTAATTTCTTATCATGCTCAATGTCAACAACTTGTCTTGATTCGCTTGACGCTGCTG", "fluorescence intensity [a.u.]": 91.6}
{"Strand": "TGCCGTCGATGAGGACACGTTCAGATATGCCAAACAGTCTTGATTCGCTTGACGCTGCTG", "fluorescence intensity [a.u.]": 73.7}
{"data": "Block 4", "target": "ABI1, truncated, D143A, DHFR fusion (Arabidopsis thaliana)", "method": "DHFR PCA, deep sequencing", "matrix": "yeast", "notes": "methotrexate growth selection, single substitutions", "together with": "(+)-ABA 2500 µM", "reference": "wild-type fitted maximum", "direction": "higher = stronger binding", "starting sequence": "PYL1, truncated, DHFR fusion (Arabidopsis thaliana); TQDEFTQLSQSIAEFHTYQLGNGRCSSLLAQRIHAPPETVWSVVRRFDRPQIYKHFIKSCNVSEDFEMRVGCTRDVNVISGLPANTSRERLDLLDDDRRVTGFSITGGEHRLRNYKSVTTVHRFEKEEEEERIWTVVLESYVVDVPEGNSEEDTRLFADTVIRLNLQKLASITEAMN"}
{"Substitution": "F15T", "relative binding score [%]": 80.5}
{"Substitution": "R45Q", "relative binding score [%]": 79.8}
{"Substitution": "S87Q", "relative binding score [%]": 14.2}
{"Substitution": "V70I", "relative binding score [%]": 90.7}
{"Substitution": "G21P", "relative binding score [%]": 97}
{"Substitution": "C60R", "relative binding score [%]": 37.9}
{"Substitution": "R46Q", "relative binding score [%]": 94.1}
{"Substitution": "Q167M", "relative binding score [%]": 96}
{"Substitution": "S140C", "relative binding score [%]": 38.6}
{"Substitution": "E127M", "relative binding score [%]": 97.6}
{"Substitution": "W41D", "relative binding score [%]": -8.5}
{"Substitution": "T6R", "relative binding score [%]": 104}
{"Substitution": "K58P", "relative binding score [%]": 50.8}
{"Substitution": "I105G", "relative binding score [%]": 51.3}
{"Substitution": "D153V", "relative binding score [%]": 49.5}
{"Substitution": "F66W", "relative binding score [%]": 95.6}
{"Substitution": "Q31L", "relative binding score [%]": 73.7}
{"Substitution": "S63I", "relative binding score [%]": 90}
{"Substitution": "L29R", "relative binding score [%]": 96.3}
{"Substitution": "L28P", "relative binding score [%]": 10.4}
{"Substitution": "H122N", "relative binding score [%]": 94.1}
{"note": "Repeated from above (block 4):"}
{"Substitution": "D153V", "relative binding score [%]": 49.5}
{"Substitution": "S140C", "relative binding score [%]": 38.6}
{"Substitution": "Q167M", "relative binding score [%]": 96}
